# Measurements from different studies.
# Each numbered part is a random draw from the data of one study; scales do not carry over between parts. “And” joins repeats or separate records; there may be more than shown.
# Chain of UniProt P49841 (whole entry, looked up): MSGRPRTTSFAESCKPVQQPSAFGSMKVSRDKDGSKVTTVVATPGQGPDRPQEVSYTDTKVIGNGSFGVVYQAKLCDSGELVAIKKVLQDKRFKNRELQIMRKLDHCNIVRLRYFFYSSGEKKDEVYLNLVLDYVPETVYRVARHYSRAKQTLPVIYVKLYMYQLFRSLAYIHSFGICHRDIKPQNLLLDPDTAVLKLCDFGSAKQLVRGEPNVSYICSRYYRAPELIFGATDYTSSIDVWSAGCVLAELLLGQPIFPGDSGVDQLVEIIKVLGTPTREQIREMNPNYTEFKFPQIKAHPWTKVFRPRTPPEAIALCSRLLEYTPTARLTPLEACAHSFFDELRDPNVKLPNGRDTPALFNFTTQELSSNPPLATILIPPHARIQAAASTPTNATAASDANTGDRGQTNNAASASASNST
# Chain of UniProt P10721 (whole entry, unmodified, looked up): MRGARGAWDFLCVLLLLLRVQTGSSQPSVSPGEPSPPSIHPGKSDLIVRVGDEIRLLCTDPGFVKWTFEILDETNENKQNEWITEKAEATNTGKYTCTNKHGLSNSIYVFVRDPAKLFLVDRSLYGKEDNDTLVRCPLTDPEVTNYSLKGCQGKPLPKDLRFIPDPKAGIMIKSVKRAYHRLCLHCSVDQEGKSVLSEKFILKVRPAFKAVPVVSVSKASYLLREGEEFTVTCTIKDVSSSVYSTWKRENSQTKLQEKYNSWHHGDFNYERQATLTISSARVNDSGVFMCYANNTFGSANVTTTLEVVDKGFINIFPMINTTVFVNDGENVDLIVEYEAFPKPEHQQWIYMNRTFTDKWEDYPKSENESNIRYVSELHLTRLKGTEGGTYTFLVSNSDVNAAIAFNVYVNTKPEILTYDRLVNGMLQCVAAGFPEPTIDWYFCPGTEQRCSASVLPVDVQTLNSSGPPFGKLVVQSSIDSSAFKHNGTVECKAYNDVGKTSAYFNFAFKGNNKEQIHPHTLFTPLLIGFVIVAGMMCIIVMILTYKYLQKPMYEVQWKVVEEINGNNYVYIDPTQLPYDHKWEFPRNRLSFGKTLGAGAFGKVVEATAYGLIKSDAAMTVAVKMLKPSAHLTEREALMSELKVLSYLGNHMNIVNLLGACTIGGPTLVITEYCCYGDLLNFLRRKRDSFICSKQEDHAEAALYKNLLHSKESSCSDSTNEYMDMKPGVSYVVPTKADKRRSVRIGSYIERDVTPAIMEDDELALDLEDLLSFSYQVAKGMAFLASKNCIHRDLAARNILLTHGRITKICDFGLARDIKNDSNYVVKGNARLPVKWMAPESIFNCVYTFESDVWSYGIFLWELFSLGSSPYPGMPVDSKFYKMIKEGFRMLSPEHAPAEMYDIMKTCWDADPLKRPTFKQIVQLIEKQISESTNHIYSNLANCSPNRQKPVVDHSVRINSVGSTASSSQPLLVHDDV
# Chain of UniProt P0C264 (whole entry, looked up): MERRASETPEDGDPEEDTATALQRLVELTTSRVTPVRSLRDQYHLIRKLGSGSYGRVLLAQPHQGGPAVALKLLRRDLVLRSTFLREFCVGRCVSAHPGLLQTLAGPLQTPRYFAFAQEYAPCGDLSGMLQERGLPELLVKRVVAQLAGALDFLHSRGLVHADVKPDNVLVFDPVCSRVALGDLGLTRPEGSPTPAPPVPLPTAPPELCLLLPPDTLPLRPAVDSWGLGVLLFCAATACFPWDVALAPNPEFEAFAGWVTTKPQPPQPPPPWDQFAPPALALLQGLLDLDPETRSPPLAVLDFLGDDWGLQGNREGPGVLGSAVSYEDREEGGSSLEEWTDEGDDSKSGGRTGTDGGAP
# Chain of UniProt Q8IW41 (whole entry, looked up): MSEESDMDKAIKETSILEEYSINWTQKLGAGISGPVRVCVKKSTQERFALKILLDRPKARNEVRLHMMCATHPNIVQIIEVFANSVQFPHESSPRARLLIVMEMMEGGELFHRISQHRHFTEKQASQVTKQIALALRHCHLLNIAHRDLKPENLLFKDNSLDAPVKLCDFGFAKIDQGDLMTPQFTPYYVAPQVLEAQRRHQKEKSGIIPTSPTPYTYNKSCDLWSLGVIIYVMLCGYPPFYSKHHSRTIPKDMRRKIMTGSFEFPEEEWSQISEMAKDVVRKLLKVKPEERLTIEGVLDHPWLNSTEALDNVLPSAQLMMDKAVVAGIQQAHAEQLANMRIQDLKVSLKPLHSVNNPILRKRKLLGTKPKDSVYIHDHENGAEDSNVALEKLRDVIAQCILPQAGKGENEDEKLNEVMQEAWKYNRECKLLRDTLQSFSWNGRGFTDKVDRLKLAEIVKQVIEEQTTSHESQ
# Chain of UniProt Q9NYL2 (whole entry, looked up): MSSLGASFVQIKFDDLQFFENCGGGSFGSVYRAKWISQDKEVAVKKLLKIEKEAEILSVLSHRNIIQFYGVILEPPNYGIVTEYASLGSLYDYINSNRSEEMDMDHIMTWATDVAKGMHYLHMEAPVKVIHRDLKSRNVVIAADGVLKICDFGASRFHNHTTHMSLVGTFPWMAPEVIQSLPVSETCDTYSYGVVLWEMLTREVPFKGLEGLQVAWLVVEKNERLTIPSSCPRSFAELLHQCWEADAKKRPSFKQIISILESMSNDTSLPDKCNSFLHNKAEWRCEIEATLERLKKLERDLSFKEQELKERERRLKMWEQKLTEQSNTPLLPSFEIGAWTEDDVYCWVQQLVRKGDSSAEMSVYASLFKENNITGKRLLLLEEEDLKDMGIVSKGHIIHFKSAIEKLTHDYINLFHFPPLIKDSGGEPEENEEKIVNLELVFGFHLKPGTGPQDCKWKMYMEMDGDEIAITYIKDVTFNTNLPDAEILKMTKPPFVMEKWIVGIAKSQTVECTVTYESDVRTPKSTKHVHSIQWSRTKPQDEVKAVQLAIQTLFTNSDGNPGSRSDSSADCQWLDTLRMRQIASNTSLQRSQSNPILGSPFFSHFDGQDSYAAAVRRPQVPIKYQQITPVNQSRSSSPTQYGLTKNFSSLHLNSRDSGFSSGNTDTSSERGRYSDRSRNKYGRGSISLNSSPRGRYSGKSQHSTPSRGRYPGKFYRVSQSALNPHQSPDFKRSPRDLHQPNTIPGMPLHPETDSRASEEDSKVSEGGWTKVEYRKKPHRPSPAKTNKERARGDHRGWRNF
# Chain of UniProt Q9HCP0 (whole entry, looked up): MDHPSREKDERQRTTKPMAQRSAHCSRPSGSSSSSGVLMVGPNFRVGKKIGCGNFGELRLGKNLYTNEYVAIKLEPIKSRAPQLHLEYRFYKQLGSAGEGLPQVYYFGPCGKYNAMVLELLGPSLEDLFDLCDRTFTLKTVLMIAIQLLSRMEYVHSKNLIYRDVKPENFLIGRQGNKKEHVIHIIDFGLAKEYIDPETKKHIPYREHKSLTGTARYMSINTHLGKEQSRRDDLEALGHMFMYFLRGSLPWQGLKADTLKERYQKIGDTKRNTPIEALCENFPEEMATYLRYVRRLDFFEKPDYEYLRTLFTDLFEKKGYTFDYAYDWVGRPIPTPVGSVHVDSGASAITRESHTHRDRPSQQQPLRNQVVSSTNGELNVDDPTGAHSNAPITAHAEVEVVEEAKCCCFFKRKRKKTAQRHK

# Sample 1
# SMILES: Cc1ncsc1-c1ccc(C(CO)NC(=O)C2CC(O)CN2C(=O)C(C(C)C)n2cc(-c3ccc(COc4c(-c5c(C)c(F)cc6[nH]ncc56)c(C5CC5)cc5c(N6CC7CC6CN7)nc(OC6CCOCC6)nc45)cc3)nn2)cc1 (centres unmarked)
# Read-out: cell growth or viability
# Method: ATP luminescence
# Time: 6 days
cell line,concentration,viability
PaTu 8902,0.3 µM,73.2% and 72.9% and 71.9% and 75.5%
HT-29,10 nM,94.4% and 110% and 82.6% and 99.4%
GP2d,30 nM,27% and 29.2% and 32.3% and 30.6%
COLO 320,3 nM,91.7% and 91% and 84.6% and 88%
SK-CO-1,100 pM,76.9% and 111% and 115% and 119%
BXPC-3,0.3 µM,111% and 88.8% and 94.8% and 71.8%
HCT-116,10 µM,9.72% and 8.01% and 9.84% and 6.08%
NCI-H1299,3 µM,119% and 123% and 130% and 109%
NCI-H358,0.3 µM,15.3% and 17.4% and 11.9% and 12.9%
GP2d,10 µM,23.1% and 15.9% and 14.5% and 18.6%

# Sample 2
# SMILES: COc1cc(-c2nc3ccc(C(=O)NCCCN(C)C)cc3n2C2CCC2)cc(OC)c1OC
target,read-out,method,concentration,remaining binding [%]
"Dual specificity tyrosine-phosphorylation-regulated kinase 2 (DYRK2, Homo sapiens, UniProt Q92630)",binding,competition with immobilised ligand,1 µM,81
"BDNF/NT-3 growth factors receptor (NTRK2, Homo sapiens, UniProt Q16620)",binding,competition with immobilised ligand,1 µM,77
"Ephrin type-A receptor 8 (EPHA8, Homo sapiens, UniProt P29322)",binding,competition with immobilised ligand,1 µM,92
"Serine/threonine-protein kinase NIM1 (NIM1K, Homo sapiens, UniProt Q8IY84)",binding,competition with immobilised ligand,1 µM,70
"MAP kinase-activated protein kinase 5 (MAPKAPK5, Homo sapiens, UniProt Q8IW41)",binding,competition with immobilised ligand,1 µM,84
"Glycogen synthase kinase-3 beta (GSK3B, Homo sapiens, UniProt P49841)",binding,competition with immobilised ligand,1 µM,94
"Uncharacterized serine/threonine-protein kinase SBK3 (SBK3, Homo sapiens, UniProt P0C264)",binding,competition with immobilised ligand,1 µM,100
"Ribosomal protein S6 kinase alpha-5, N-terminal kinase domain (RPS6KA5, Homo sapiens, UniProt O75582)",binding,competition with immobilised ligand,1 µM,94
"TGF-beta receptor type-2 (TGFBR2, Homo sapiens, UniProt P37173)",,KINOMEscan,1000 nM,100
"Casein kinase I isoform delta (CSNK1D, Homo sapiens, UniProt P48730)",binding,competition with immobilised ligand,1 µM,86
"Receptor-type tyrosine-protein kinase FLT3 (FLT3, Homo sapiens, UniProt P36888, N841I)",binding,competition with immobilised ligand,1 µM,100
"Leucine-rich repeat serine/threonine-protein kinase 2 (LRRK2, Homo sapiens, UniProt Q5S007)",binding,competition with immobilised ligand,1 µM,92
"Hepatocyte growth factor receptor (MET, Homo sapiens, UniProt P08581)",binding,competition with immobilised ligand,1 µM,100
"Mast/stem cell growth factor receptor Kit (KIT, Homo sapiens, UniProt P10721, V559D/V654A)",binding,competition with immobilised ligand,1 µM,91
"Casein kinase I isoform gamma-3 (CSNK1G3, Homo sapiens, UniProt Q9Y6M4)",binding,competition with immobilised ligand,1 µM,100
"Fibroblast growth factor receptor 3 (FGFR3, Homo sapiens, UniProt P22607, G697C)",binding,competition with immobilised ligand,1 µM,90
"Casein kinase I isoform gamma-1 (CSNK1G1, Homo sapiens, UniProt Q9HCP0)",binding,competition with immobilised ligand,1 µM,97
"Tyrosine-protein kinase ABL1, phosphorylated (ABL1, Homo sapiens, UniProt P00519, M351T)",binding,competition with immobilised ligand,1 µM,50
"Mitogen-activated protein kinase 10 (MAPK10, Homo sapiens, UniProt P53779)",binding,competition with immobilised ligand,1 µM,70
"Mitogen-activated protein kinase kinase kinase 20 (MAP3K20, Homo sapiens, UniProt Q9NYL2)",binding,competition with immobilised ligand,1 µM,96
"Leukocyte tyrosine kinase receptor (LTK, Homo sapiens, UniProt P29376)",binding,competition with immobilised ligand,1 µM,100
"Serine/threonine-protein kinase 32A (STK32A, Homo sapiens, UniProt Q8WU08)",binding,competition with immobilised ligand,1 µM,89

# Sample 3
# Compound: C[C@@H]1CN(c2ccc(-c3cc(C(=O)NCCOCCOCCOCCOCCOCCOCCNC(=O)/C=C/c4[nH]cc(C(=O)N[C@@H](CC(N)=O)c5ccc(F)c(Cl)c5)c4-c4ccc(Cl)cc4F)ccc3F)cc2NC(=O)c2ccc(F)cc2C(F)(F)F)C[C@H](C)N1C
# Read-out: thermal unfolding
# Method: differential scanning fluorimetry
# Concentration: 5.5 µM
# Reading: higher = more unfolded
# DCAF1: DDB1- and CUL4-associated factor 1 (DCAF1, Homo sapiens, UniProt Q9Y4B6)
# Chain of UniProt Q9Y4B6 (whole entry, looked up): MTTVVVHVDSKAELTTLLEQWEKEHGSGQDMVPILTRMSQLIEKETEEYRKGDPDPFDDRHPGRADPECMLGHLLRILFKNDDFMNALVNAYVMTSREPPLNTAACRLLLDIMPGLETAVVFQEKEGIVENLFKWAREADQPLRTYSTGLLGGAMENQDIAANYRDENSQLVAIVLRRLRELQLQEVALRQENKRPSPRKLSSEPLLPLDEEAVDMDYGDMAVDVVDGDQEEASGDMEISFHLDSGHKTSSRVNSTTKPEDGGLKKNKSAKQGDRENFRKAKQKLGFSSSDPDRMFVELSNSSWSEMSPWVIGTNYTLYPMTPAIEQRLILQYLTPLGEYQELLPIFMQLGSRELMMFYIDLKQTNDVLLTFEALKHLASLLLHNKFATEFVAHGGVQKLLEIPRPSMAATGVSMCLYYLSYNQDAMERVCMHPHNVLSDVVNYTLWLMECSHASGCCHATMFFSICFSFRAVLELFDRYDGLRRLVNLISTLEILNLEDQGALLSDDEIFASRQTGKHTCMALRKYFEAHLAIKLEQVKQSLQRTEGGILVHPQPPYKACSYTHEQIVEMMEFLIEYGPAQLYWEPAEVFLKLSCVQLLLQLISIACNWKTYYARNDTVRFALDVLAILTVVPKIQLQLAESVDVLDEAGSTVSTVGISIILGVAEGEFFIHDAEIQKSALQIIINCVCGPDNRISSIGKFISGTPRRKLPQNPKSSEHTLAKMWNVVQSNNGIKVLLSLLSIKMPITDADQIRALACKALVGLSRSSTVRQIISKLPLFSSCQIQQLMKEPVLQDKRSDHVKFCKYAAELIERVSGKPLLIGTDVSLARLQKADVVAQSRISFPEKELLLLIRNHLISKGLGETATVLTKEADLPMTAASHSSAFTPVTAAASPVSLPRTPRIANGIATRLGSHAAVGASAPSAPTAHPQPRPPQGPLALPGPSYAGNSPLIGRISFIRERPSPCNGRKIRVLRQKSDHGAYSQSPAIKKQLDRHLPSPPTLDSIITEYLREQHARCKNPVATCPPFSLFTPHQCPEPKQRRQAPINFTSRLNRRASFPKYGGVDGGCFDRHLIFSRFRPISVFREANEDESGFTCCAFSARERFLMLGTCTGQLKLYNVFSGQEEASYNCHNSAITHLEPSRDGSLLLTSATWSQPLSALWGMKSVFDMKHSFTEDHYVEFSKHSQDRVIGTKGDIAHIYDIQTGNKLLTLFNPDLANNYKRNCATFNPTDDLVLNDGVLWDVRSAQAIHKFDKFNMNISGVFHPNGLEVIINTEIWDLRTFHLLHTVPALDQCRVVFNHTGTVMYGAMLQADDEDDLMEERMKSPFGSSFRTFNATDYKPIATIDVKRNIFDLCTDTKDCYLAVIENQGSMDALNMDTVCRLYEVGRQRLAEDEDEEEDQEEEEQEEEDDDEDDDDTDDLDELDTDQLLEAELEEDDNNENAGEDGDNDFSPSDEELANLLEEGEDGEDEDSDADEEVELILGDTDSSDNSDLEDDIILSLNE
# WDR5: WD repeat-containing protein 5 (WDR5, Homo sapiens, UniProt P61964)
target,temperature,SYPRO Orange fluorescence [a.u.]
DCAF1,85.61 °C,35300
WDR5,48.4 °C,15700
WDR5,38.8 °C,13900
DCAF1,93.41 °C,29800
DCAF1,84.61 °C,36300
DCAF1,59.01 °C,43100
DCAF1,36.6 °C,10600
DCAF1,75.01 °C,43700
DCAF1,72.01 °C,46300
WDR5,61.01 °C,15100
WDR5,53.01 °C,16600

# Other studies, line by line
Compound,method,matrix,setting,measurement,result
CCN1/C(=C/C=C2\CCCC(/C=C/C3=[N+](CC)c4ccccc4C3(C)C)=C2NCCCCCCCCN2CCC(Nc3nc4ccccc4n3Cc3ccc(F)cc3)CC2)C(C)(C)c2ccccc21,dynamic light scattering,saline and PBS at various pH,range,aggregate particle size,200 to 1000 nm

# For quick reference, copied from above (sample 2):
target,read-out,method,concentration,remaining binding [%]
"Glycogen synthase kinase-3 beta (GSK3B, Homo sapiens, UniProt P49841)",binding,competition with immobilised ligand,1 µM,94
"Uncharacterized serine/threonine-protein kinase SBK3 (SBK3, Homo sapiens, UniProt P0C264)",binding,competition with immobilised ligand,1 µM,100
"Ribosomal protein S6 kinase alpha-5, N-terminal kinase domain (RPS6KA5, Homo sapiens, UniProt O75582)",binding,competition with immobilised ligand,1 µM,94
"TGF-beta receptor type-2 (TGFBR2, Homo sapiens, UniProt P37173)",,KINOMEscan,1000 nM,100
